Results gathered from unrelated publications.
Each line is one published result; not all experiments were run side by side. Numbers after ± are the reported error.

CN(C)CCNC(=O)c1cc(-c2ccccc2)nc2ccccc12  CC50 (Vero C1008; neutral red uptake): 116 µM
CCCC[C@@H](O)C[C@@H](C)C[C@H](NC(=O)[C@@H]1C[C@H](C)CN1C(=O)/C=C/[C@@H](C)CC)C(=O)N[C@H](C(=O)NC(C)(C)C(=O)N[C@@H](CC(C)C)C(=O)N[C@@H](CC(C)C)C(=O)NC(C)(C)C(=O)NC(C)(C)C(=O)NCCC(=O)N[C@@H](C)CN(C)C)[C@H](O)C(C)C  CC50 (C2C12; cell growth or viability, imaging; 72 h): > 1.5 µM
Clc1ccc(CN2CCCC3=CC4CC(CN5CCCCC45)C32)c(Cl)c1 (stereo not drawn)  CC50 (Huh-7; cytotoxicity): 138 µM
CC[C@H](C)[C@H](NC(=O)[C@H](CCCN)NC(=O)[C@H](CC(N)=O)NC(=O)[C@H](Cc1c[nH]c2ccccc12)NC(=O)[C@H](Cc1ccccc1)NC(=O)[C@H](CCCN)NC(=O)[C@H](CCCCNC(=N)N)NC(=O)[C@H](CC(C)C)NC(=O)[C@H](Cc1c[nH]c2ccccc12)NC(=O)[C@H](CCCN)NC(=O)[C@H](CCCCNC(=N)N)NC(=O)[C@H](CC(C)C)NC(=O)CNC(C)=O)C(=O)N[C@@H](CCCN)C(=O)N[C@@H](CCCCNC(=N)N)C(N)=O  CC50 (T cells; CCK-8; 24 h): 43.1 µM
CC(C)C[C@H](NC(=O)[C@H](Cc1c[nH]cn1)NC(=O)[C@H](Cc1c[nH]cn1)NC(=O)[C@H](CC(C)C)NC(=O)[C@H](Cc1ccccc1)NC(=O)[C@H](Cc1c[nH]cn1)NC(=O)[C@H](CC(C)C)NC(=O)[C@@H](N)Cc1ccccc1)C(=O)N[C@@H](Cc1ccccc1)C(N)=O  CC50 (Huh-7.5.1; cell growth or viability, MTT; 48 h): > 500 µg/mL
COc1ccc2nc3ncccc3c(Nc3ccc(O)c(CN4CCCC4)c3)c2c1  CC50 (U2OS-ACE2-GFP; 20 (unit not given)): 30.8 µM
CC(C)C1=CC2=CC[C@@H]3[C@](C)(CCC[C@@]3(C)C(=O)OCC#CCN3CCCC3)[C@H]2CC1  CC50 (MDCK; cytotoxicity, MTT; 48 h): 41 µM
C#CCCOP(=O)(O)Oc1c2c(c(OP(=O)(O)OCCC#C)c3c1C1CC3c3cc4c(cc31)C1CC4c3ccccc31)C1CC2c2cc3c(cc21)C1CC3c2ccccc21  CC50 (Caco-2; CellTiter-Glo; 2 days): 177 µM
CC[C@H](C)/C=C/C(=O)N1C[C@@H](C)C[C@H]1C(=O)N[C@@H](CC(C)C)C(=O)N[C@H](C(=O)NC(C)(C)C(=O)N[C@@H](CC(C)C)C(=O)N[C@@H](CC(C)C)C(=O)NC(C)(C)C(=O)NC(C)(C)C(=O)NCCC(=O)N[C@@H](C)CNC)[C@H](O)C(C)C  CC50 (C2C12; cell growth or viability, imaging; 72 h): > 1.5 µM
Clc1ccc(CN2CCCC3=CC4CC(CN5CCCCC45)C32)cc1Cl (stereo not drawn)  CC50 (Huh-7; cytotoxicity): 147 µM
CC(C)(C)SSc1ccccc1CCOP1(=O)OC[C@H]2O[C@@H](n3ccc(=O)[nH]c3=O)[C@](C)(F)[C@@H]2O1 (stereo partly drawn)  CC50 (CEM; MTS; 4 days): 31.6 µM
CCCCCCC1O[C@@H]2C[C@H]3[C@@H]4CCC5=CC(=O)C=C[C@]5(C)[C@H]4[C@@H](O)C[C@]3(C)[C@]2(C(=O)CO)O1 (stereo partly drawn)  CC50 (human cells): > 30 µM
CC(C)CCC1=C(O)C(=O)c2ccccc2C1=O  CC50 (Calu-3; cell growth or viability; 72 h): 75 µM
COc1ccc2nc3ccc(C(F)(F)F)cc3c(Nc3ccc(O)c(CN4CCCC4)c3)c2c1  CC50 (U2OS-ACE2-GFP; 20 (unit not given)): 10.1 µM
Clc1ccc(CN2CCCC3=CC4CC(CN5CCCCC45)C32)cc1 (stereo not drawn)  CC50 (Huh-7; cytotoxicity): > 267 µM
CCc1ccc(COP(=O)(O)Oc2c3c(c(OP(=O)(O)OCc4ccc(CC)cc4)c4c2C2CC4c4cc5c(cc42)C2CC5c4ccccc42)C2CC3c3cc4c(cc32)C2CC4c3ccccc32)cc1  CC50 (Caco-2; CellTiter-Glo; 2 days): 106 µM
O=C1Nc2ccc(F)cc2C1=Cc1c(Cl)[nH]c2c1ccc1ccccc12  CC50 (NCI-60 cell panel; 48 h, panel mean): 56.2 µM
O=C(CCN(CCC(=O)N[C@@H](Cc1c[nH]c2ccccc12)C(=O)O)C(=O)CCN(CCC(=O)N(CCC(=O)N[C@@H](Cc1c[nH]c2ccccc12)C(=O)O)CCC(=O)N[C@@H](Cc1c[nH]c2ccccc12)C(=O)O)C(=O)c1cc(C(=O)N(CCC(=O)N(CCC(=O)N[C@@H](Cc2c[nH]c3ccccc23)C(=O)O)CCC(=O)N[C@@H](Cc2c[nH]c3ccccc23)C(=O)O)CCC(=O)N(CCC(=O)N[C@@H](Cc2c[nH]c3ccccc23)C(=O)O)CCC(=O)N[C@@H](Cc2c[nH]c3ccccc23)C(=O)O)cc(C(=O)N(CCC(=O)N(CCC(=O)N[C@@H](Cc2c[nH]c3ccccc23)C(=O)O)CCC(=O)N[C@@H](Cc2c[nH]c3ccccc23)C(=O)O)CCC(=O)N(CCC(=O)N[C@@H](Cc2c[nH]c3ccccc23)C(=O)O)CCC(=O)N[C@@H](Cc2c[nH]c3ccccc23)C(=O)O)c1)N[C@@H](Cc1c[nH]c2ccccc12)C(=O)O  CC50 (MT4): > 100 µM
CC(C)C[C@H](NC(=O)[C@H](Cc1c[nH]cn1)NC(=O)[C@H](Cc1ccc(O)cc1)NC(=O)[C@H](CCCNC(=N)N)NC(=O)[C@H](Cc1ccc(O)cc1)NC(=O)[C@H](CCCCN)NC(=O)[C@@H](N)CCCCN)C(=O)N[C@@H](CCCCN)C(=O)N1CCC[C@H]1C(=O)N[C@@H](Cc1ccccc1)C(=O)NCCCC[C@H](NC(=O)[C@H](Cc1ccccc1)NC(=O)[C@@H]1CCCN1C(=O)[C@H](CCCCN)NC(=O)[C@H](CC(C)C)NC(=O)[C@H](Cc1c[nH]cn1)NC(=O)[C@H](Cc1ccc(O)cc1)NC(=O)[C@H](CCCNC(=N)N)NC(=O)[C@H](Cc1ccc(O)cc1)NC(=O)[C@H](CCCCN)NC(=O)[C@@H](N)CCCCN)C(N)=O  CC50 (Swiss mouse peritoneal macrophages; MTT): > 2000 µM
Cc1ccc(COP(=O)(O)Oc2c3c(c(OP(=O)(O)OCc4ccc(C)cc4)c4c2C2CC4c4cc5c(cc42)C2CC5c4ccccc42)C2CC3c3cc4c(cc32)C2CC4c3ccccc32)cc1  CC50 (Caco-2; CellTiter-Glo; 2 days): 77.4 µM
O=C(CN1CCCC2=CC3CC(CN4CCCCC34)C21)Nc1ccc(Br)c(C(F)(F)F)c1 (stereo not drawn)  CC50 (Huh-7; cytotoxicity): 38.3 µM
CONC(=O)[C@H]1[C@@H](O)[C@@]2(O)c3c(OC)cc(OC)cc3O[C@@]2(c2ccc(OC)cc2)[C@@H]1c1ccccc1  CC50 (A549; cytotoxicity; 72 (unit not given)): 0.0193 µM
CC[C@H](C)[C@H](NC(=O)[C@H](CCCCN)NC(=O)[C@H](CC(N)=O)NC(=O)[C@H](Cc1c[nH]c2ccccc12)NC(=O)[C@H](Cc1ccccc1)NC(=O)[C@H](CCCCN)NC(=O)[C@H](CCCCNC(=N)N)NC(=O)[C@H](CC(C)C)NC(=O)[C@H](Cc1c[nH]c2ccccc12)NC(=O)[C@H](CCCCN)NC(=O)[C@H](CCCCNC(=N)N)NC(=O)[C@H](CC(C)C)NC(=O)CNC(C)=O)C(=O)N[C@@H](CCCCN)C(=O)N[C@@H](CCCCNC(=N)N)C(N)=O  CC50 (T cells; CCK-8; 24 h): 31 µM
Cc1cc(C)cc(NC(=O)N2CCCC3=CC4CC(CN5CCCCC45)C32)c1 (stereo not drawn)  CC50 (Huh-7; cytotoxicity): > 267 µM
CC(C)C1=C[C@@]23CC[C@@H]4[C@](C)(CCC[C@@]4(C)C(=O)OCC#CCN4CCOCC4)[C@H]2C[C@@H]1[C@H]1C(=O)CCC(=O)[C@H]13  CC50 (MDCK; cytotoxicity, MTT; 48 h): 20.8 µM
Oc1c(CN2CCCC2)cc(Nc2c3ccc(Cl)cc3nc3ccc(Cl)cc23)cc1CN1CCCC1  CC50 (U2OS-ACE2-GFP; 20 (unit not given)): 8.86 µM
CC(C)OP(=O)(O)Oc1c2c(c(OP(=O)(O)OC(C)C)c3c1C1CC3c3cc4c(cc31)C1CC4c3ccccc31)C1CC2c2cc3c(cc21)C1CC3c2ccccc21  CC50 (Caco-2; CellTiter-Glo; 2 days): 291 µM
C#CCCC1(CCCNC(=O)CCOCCOc2ccc(-c3cnc4c(C#Cc5cccnc5)snc4c3)cc2)N=N1  CC50 (human cells; 24 (unit not given)): > 20 µM
COc1ccc2nc3ccc(Cl)cc3c(Nc3cc(CN4CCCC4)c(O)c(CN4CCCC4)c3)c2c1  CC50 (U2OS-ACE2-GFP; 20 (unit not given)): 5.19 µM
CCCOP(=O)(O)Oc1c2c(c(OP(=O)(O)OCCC)c3c1C1CC3c3cc4c(cc31)C1CC4c3ccccc31)C1CC2c2cc3c(cc21)C1CC3c2ccccc21  CC50 (Caco-2; CellTiter-Glo; 2 days): 226 µM
CC[C@H](C)[C@H](NC(=O)[C@H](CCCCNC(=N)N)NC(=O)[C@H](CC(N)=O)NC(=O)[C@H](CC(C)C)NC(=O)[C@H](Cc1ccccc1)NC(=O)[C@H](CCCCNC(=N)N)NC(=O)[C@H](CCCCNC(=N)N)NC(=O)[C@H](CC(C)C)NC(=O)[C@H](CC(C)C)NC(=O)[C@H](CCCCNC(=N)N)NC(=O)[C@H](CCCCNC(=N)N)NC(=O)[C@H](CC(C)C)NC(=O)CNC(C)=O)C(=O)N[C@@H](CCCCNC(=N)N)C(=O)N[C@@H](CCCCNC(=N)N)C(N)=O  CC50 (T cells; CCK-8; 24 h): 5.04 µM
COc1cc2c3cc1Oc1cc(ccc1O)CC1c4c(cc(OC)c(O)c4Oc4ccc(cc4)CC3N(C)CC2)CCN1C (stereo not drawn)  CC50 (Huh-7; cell growth or viability, MTT; 24 h): 62.8 µM
C=C1C(=O)OC2C1CCC(C)=C1C(OC(=O)Nc3ccc(C(F)(F)F)cc3)CC(C)(O)C12 (stereo not drawn)  CC50 (MV4-11; cell viability, alamarBlue; 24 h): 2.9 ± 0.6 µM
O=C(CN1CCCC2=CC3CC(CN4CCCCC34)C21)Nc1cc(Br)ccc1Br (stereo not drawn)  CC50 (Huh-7; cytotoxicity): 164 µM
COc1ccc2nc3cc(Cl)ccc3c(N3CCOCC3)c2c1  CC50 (U2OS-ACE2-GFP; 20 (unit not given)): > 50 µM
COP(=O)(O)Oc1c2c(c(OP(=O)(O)OC)c3c1C1CC3c3cc4c(cc31)C1CC4c3ccccc31)C1CC2c2cc3c(cc21)C1CC3c2ccccc21  CC50 (Caco-2; CellTiter-Glo; 2 days): 214 µM
Oc1ccc(Nc2c3ccc(Cl)cc3nc3ccc(Cl)cc23)cc1CN1CCCC1  CC50 (U2OS-ACE2-GFP; 20 (unit not given)): 19.3 µM
O=C(CNc1cccc(F)c1)N1CCCC2=CC3CC(CN4CCCCC34)C21 (stereo not drawn)  CC50 (Huh-7; cytotoxicity): > 267 µM
CC(C)OC(=O)[C@H](C)N[P@](=O)(OC[C@H]1O[C@@H](n2ccc(=O)[nH]c2=O)[C@@](F)(Br)[C@@H]1O)Oc1ccccc1  CC50 (CEM; MTS; 4 days): > 100 µM
O=C(CN1CCCC2=CC3CC(CN4CCCCC34)C21)Nc1cc(Cl)cc(OC(F)(F)F)c1 (stereo not drawn)  CC50 (Huh-7; cytotoxicity): 62.8 µM
OC[C@H]1[C@@H](O)[C@@H](O)CN1Cc1ccc(I)cc1  CC50 (BJ; MTS; 72 h): > 200 µM
c1nc(N2CCCCCC2)ncc1CNC12CC3CC(CC(C3)C1)C2  CC50 (A549; MTT): 29.3 µM

Excerpt of the above:
O=C(CN1CCCC2=CC3CC(CN4CCCCC34)C21)Nc1ccc(Br)c(C(F)(F)F)c1 (stereo not drawn)  CC50 (Huh-7; cytotoxicity): 38.3 µM
COc1cc2c3cc1Oc1cc(ccc1O)CC1c4c(cc(OC)c(O)c4Oc4ccc(cc4)CC3N(C)CC2)CCN1C (stereo not drawn)  CC50 (Huh-7; cell growth or viability, MTT; 24 h): 62.8 µM
CC(C)(C)SSc1ccccc1CCOP1(=O)OC[C@H]2O[C@@H](n3ccc(=O)[nH]c3=O)[C@](C)(F)[C@@H]2O1 (stereo partly drawn)  CC50 (CEM; MTS; 4 days): 31.6 µM
CN(C)CCNC(=O)c1cc(-c2ccccc2)nc2ccccc12  CC50 (Vero C1008; neutral red uptake): 116 µM
C=C1C(=O)OC2C1CCC(C)=C1C(OC(=O)Nc3ccc(C(F)(F)F)cc3)CC(C)(O)C12 (stereo not drawn)  CC50 (MV4-11; cell viability, alamarBlue; 24 h): 2.9 ± 0.6 µM
CCCOP(=O)(O)Oc1c2c(c(OP(=O)(O)OCCC)c3c1C1CC3c3cc4c(cc31)C1CC4c3ccccc31)C1CC2c2cc3c(cc21)C1CC3c2ccccc21  CC50 (Caco-2; CellTiter-Glo; 2 days): 226 µM
Cc1cc(C)cc(NC(=O)N2CCCC3=CC4CC(CN5CCCCC45)C32)c1 (stereo not drawn)  CC50 (Huh-7; cytotoxicity): > 267 µM
